Experimental data from different studies.
Numbers after ± are the reported error.
B1: haptoglobin; sequence looked up; chain VDSGNDVTDIADDGCPKPPEIAHGYVEHSVRYQCKNYYKLRTEGDGVYTLNDKKQWINKAVGDKLPECEADDGCPKPPEIAHGYVEHSVRYQCKNYYKLRTEGDGVYTLNNEKQWINKAVGDKLPECEAVCGKPKNPANPVQRILGGHLDAKGSFPWQAKMVSHHNLTTGATLINEQWLLTTAKNLFLNHSENATAKDIAPTLTLYVGKKQLVEIEKVVLHPNYSQVDIGLIKLKQKVSVNERVMPICLPSKDYAEVGRVGYVSGWGRNANFKFTDHLKYVMLPVADQDQCIRHYEGSTVPEKKTPKSPVGVQPILNEHTFCAGMSKYQEDTCYGDAGSAFAVHDLEEDTWYATGILSFDKSCAVAEYGVYVKVTSIQDWVQKTIAEN
B2: Plasminogen; sequence looked up; chain EPLDDYVNTQGASLFSVTKKQLGAGSIEECAAKCEEDEEFTCRAFQYHSKEQQCVIMAENRKSSIIIRMRDVVLFEKKVYLSECKTGNGKNYRGTMSKTKNGITCQKWSSTSPHRPRFSPATHPSEGLEENYCRNPDNDPQGPWCYTTDPEKRYDYCDILECEEECMHCSGENYDGKISKTMSGLECQAWDSQSPHAHGYIPSKFPNKNLKKNYCRNPDRELRPWCFTTDPNKRWELCDIPRCTTPPPSSGPTYQCLKGTGENYRGNVAVTVSGHTCQHWSAQTPHTHNRTPENFPCKNLDENYCRNPDGKRAPWCHTTNSQVRWEYCKIPSCDSSPVSTEQLAPTAPPELTPVVQDCYHGDGQSYRGTSSTTTTGKKCQSWSSMTPHRHQKTPENYPNAGLTMNYCRNPDADKGPWCFTTDPSVRWEYCNLKKCSGTEASVVAPPPVVLLPDVETPSEEDCMFGNGKGYRGKRATTVTGTPCQDWAAQEPHRHSIFTPETNPRAGLEKNYCRNPDGDVGGPWCYTTNPRKLYDYCDVPQCAAPSFDCGKPQVEPKKCPGRVVGGCVAHPHSWPWQVSLRTRFGMHFCGGTLISPEWVLTAAHCLEKSPRPSSYKVILGAHQEVNLEPHVQEIEVSRLFLEPTRKDIALLKLSSPAVITDKVIPACLPSPNYVVADRTECFITGWGETQGTFGAGLLKEAQLPVIENKVCNRYEFLNGRVQSTELCAGHLAGGTDSCQGDSGGPLVCFEKDKYILQGVTSWGLGCARPNKPGVYVRVSRFVTWIEGVMRNN

Substance | target | test | test system | conditions | how to read | endpoint | result
CN(C)CCCn1cc(C2=C(c3c[nH]c4ccccc34)C(=O)NC2=O)c2ccccc21 | Yes kinase, rat | CCK-stimulated phosphorylation, PKC inhibitor, refers to: Yes pY416 |  | 5 µM, 1 min, pretreatment, together with: CCK 100 nM | baseline: CCK alone | phosphorylation level | 139 ± 21%
NC(=O)CC[C@H](N)C(=O)N[C@H](CO)[C@H](O)c1ccc([N+](=O)[O-])cc1 | Escherichia coli 70S ribosome | binding, fluorescence polarization |  | together with: BODIPY-erythromycin 4 nM |  | Kd | 6.3 ± 5.1 µM
B1 (haptoglobin) | anti-oxytocin rabbit polyclonal IgG | cross-reactivity, oxytocin EIA, Enzo |  | 3 µg/mL |  | apparent oxytocin concentration | 1.5 ± 1.4 pg/mL
CC(C)CCCC(C)CCN1CCn2cc(C(=O)NCc3ccc(F)cc3F)c(=O)c(O)c2C1=O (stereo not drawn) | HIV-1 integrase wild type | viral replication | HOS, HIV-1 | single-round vector |  | EC50 | > 0.02 µM
B2 (Plasminogen) | anti-oxytocin rabbit polyclonal IgG | cross-reactivity, oxytocin EIA, Enzo |  | 3 µg/mL |  | apparent oxytocin concentration | 1.6 ± 1.1 pg/mL
FFNFFKG | adeno-associated virus 9 | capsid binding, bind-and-elute chromatography | peptide | peptide ligand resin, MgCl2 elution |  | recovery yield | 72.4%
anthraquinone-neomycin | poly(dA)•2poly(dT) triplex | triplex to duplex melting, UV thermal denaturation |  | concentration not given, pH 5.5, KCl 150 mM |  | Tm | 64 °C
Apolipoprotein A-II | anti-oxytocin rabbit polyclonal IgG | cross-reactivity, oxytocin EIA, Enzo |  | 3 µg/mL |  | apparent oxytocin concentration | 14.7 ± 3 pg/mL
CC(=O)NC(Cc1ccc(O)cc1)C(=O)NC(CO)C(O)c1ccc([N+](=O)[O-])cc1 (stereo not drawn) | Escherichia coli 70S ribosome | binding, fluorescence polarization |  | together with: BODIPY-erythromycin 4 nM |  | Kd | 140 ± 50 µM
cholecystokinin octapeptide | Yes kinase, rat | Western blot, refers to: Yes pY416 | pancreatic acini | 100 nM, 1 min | baseline: untreated control | phosphorylation level | 334 ± 53%
CCCCC/C=C\C/C=C\C/C=C\C/C=C\CCCC(=O)NCCO | rat glycine receptor | glycine-evoked current, potentiator, whole-cell patch clamp | rat spinal neurons |  |  | EC50 | 5.5 ± 2 µM
Clc1cnc(Oc2ccc(Oc3ncc(Cl)cc3Cl)cc2)c(Cl)c1 | mouse CAR LBD in CAR:RXR | binding, HDX-MS |  | concentration not given, 10 to 3600 s, pH 8, 4 °C, residues 330-338, helix H10 | baseline: unliganded CAR:RXR | deuterium exchange change | -32%
NC(Cc1ccccc1)C(=O)NC(CO)C(O)c1ccc([N+](=O)[O-])cc1 (stereo not drawn) | Escherichia coli 70S ribosome | binding, fluorescence polarization |  | together with: BODIPY-erythromycin 4 nM |  | Kd | 19 ± 8 µM
CC(=O)C[C@@H](c1ccccc1)c1c(O)c2ccc(O)cc2oc1=O | UGT | refers to: 7-glucuronide | human liver microsomes |  |  | Vmax1 | 1470 nmol/min/mg protein
FWWAAFFKG | adeno-associated virus 9 | capsid binding, bind-and-elute chromatography | peptide | peptide ligand resin, MgCl2 elution |  | recovery yield | 53.7%
O=S(=O)(CC1CS1)c1ccc(Oc2ccccc2)cc1 (stereo not drawn) | LDLR | ELISA | apoE4-TR mice, soluble brain fraction | intraperitoneal, 25 mg/kg, 45 min before intracranial Aβ, brains collected 10 min later, together with: intracranial Aβ(1-42) | baseline: vehicle, higher = stronger reduction | soluble LRP1 level | > 2 fold
Aprotinin | anti-oxytocin rabbit polyclonal IgG | cross-reactivity, oxytocin EIA, Enzo |  | 3 µg/mL |  | apparent oxytocin concentration | 0.9 ± 0.4 pg/mL

Substance | target | test | test system | conditions | how to read | endpoint | result
CC(=O)NC(CCCNC(=N)N)C(=O)NC(CO)C(O)c1ccc([N+](=O)[O-])cc1 (stereo not drawn) | Escherichia coli 70S ribosome | binding, fluorescence polarization |  | together with: BODIPY-erythromycin 4 nM |  | Kd | 26 ± 10 µM
CCN1CCN(C(=O)N[C@@H](C(=O)N[C@@H]2C(=O)N3[C@@H]2SC(C)(C)[C@@H]3C(=O)O)c2ccccc2)C(=O)C1=O | PBP5/6 Escherichia coli | Bocillin-FL binding, inhibitor | Escherichia coli, MG1655 | 30 min, Tris-EDTA permeabilised, together with: Bocillin-FL 25 µM |  | apparent IC50 | 10 ± 13 µM
O=C(O)c1ccc(O)c(O)c1 | NAD(P)H quinone oxidoreductase, mouse | enzyme induction, inducer | Hepa-1c1c7 | concentration doubling activity |  | CD value | 4.1 µM
NC(CO)C(=O)NC(CO)C(O)c1ccc([N+](=O)[O-])cc1 (stereo not drawn) | Escherichia coli 70S ribosome | binding, fluorescence polarization |  | together with: BODIPY-erythromycin 4 nM |  | Kd | 8.4 ± 2.4 µM
O=C(N[C@H](Cn1ccnc1)c1ccc(Cl)cc1Cl)c1ccc(-c2nnc(-c3ccccc3)o2)cc1 (single isomer, unassigned) | Leishmania infantum CYP51 |  |  | concentration not given |  | remaining activity | 96 ± 6.3%
CC1(C)C=Cc2c(O)cc(/C=C/c3ccc(O)cc3)cc2O1 | Sp1 (human) | reporter gene, inhibitor | SW1353 | control transcription factor |  | IC50 | > 25 µg/mL
COCC(C)n1ccn2cc(C(=O)NCc3ccc(F)cc3F)c(=O)c(O)c2c1=O (stereo not drawn) | HIV-1 integrase wild type | viral replication | HOS, HIV-1 | single-round vector |  | EC50 | 0.0017 ± 0.0001 µM
CC(C)[C@H](NC(=O)CNC(=O)CNC(=O)CNC(=O)[C@H](CCCNC(=N)N)NC(=O)[C@H](CCCNC(=N)N)NC(=O)[C@H](CCCNC(=N)N)NC(=O)[C@H](CCC(N)=O)NC(=O)[C@H](CCCNC(=N)N)NC(=O)[C@H](CCCNC(=N)N)NC(=O)[C@H](CCCCN)NC(=O)[C@H](CCCCN)NC(=O)[C@H](CCCNC(=N)N)NC(=O)CNC(=O)[C@@H](N)Cc1ccc(O)cc1)C(=O)N[C@H](C(=O)N[C@H](C(=O)N[C@@H](C)C(=O)O)[C@@H](C)O)C(C)C | ClpP and alpha-synuclein ΔN (human) | inhibitor, co-immunoprecipitation | HEK293T cells |  |  | protein interaction | inhibited
O=[N+]([O-])c1ccc(Cl)c([N+](=O)[O-])c1 | rhodopsin wild type-Rluc fusion | reporter gene | HEK293 | 24 h |  | EC50 | 1.52 µM
Apolipoprotein B | anti-oxytocin rabbit polyclonal IgG | cross-reactivity, oxytocin EIA, Enzo |  | 3 µg/mL |  | apparent oxytocin concentration | 3.5 ± 0.8 pg/mL
COc1ccc(/C=C/c2cc(O)cc(O[C@@H]3O[C@H](CO)[C@@H](O)[C@H](O)[C@H]3O)c2)cc1O | Sp1 (human) | reporter gene, inhibitor | SW1353 | control transcription factor |  | IC50 | > 25 µg/mL
O=C1C=C(N(Cc2ccc(Cl)nc2)CC(F)F)CO1 | nicotinic acetylcholine receptor Spodoptera frugiperda | ion current, agonist, whole-cell voltage clamp | isolated Spodoptera frugiperda neurons |  |  | EC50 | 2.3 µM
CCC(C)C(N)C(=O)NC(CO)C(O)c1ccc([N+](=O)[O-])cc1 (stereo not drawn) | Escherichia coli 70S ribosome | binding, fluorescence polarization |  | together with: BODIPY-erythromycin 4 nM |  | Kd | 36 ± 10 µM
amyloid beta-42 Met35-sulfone | methionine sulfoxide reductase (rat) | HPLC, dabsyl-Met(O) | rat primary cortical neurons | 10 µM, 24 h | baseline: untreated cells | Msr activity decrease | 10 ± 4%
Transthyretin | anti-oxytocin rabbit polyclonal IgG | cross-reactivity, oxytocin EIA, Enzo |  | 3 µg/mL |  | apparent oxytocin concentration | 1.8 ± 2.4 pg/mL
CC(C)=CCc1c(O)cc(/C=C/c2ccccc2)cc1O | Sp1 (human) | reporter gene, inhibitor | SW1353 | control transcription factor |  | IC50 | > 25 µg/mL

A few entries again:
Substance | target | test | test system | conditions | how to read | endpoint | result
O=C1C=C(N(Cc2ccc(Cl)nc2)CC(F)F)CO1 | nicotinic acetylcholine receptor Spodoptera frugiperda | ion current, agonist, whole-cell voltage clamp | isolated Spodoptera frugiperda neurons |  |  | EC50 | 2.3 µM
O=C(N[C@H](Cn1ccnc1)c1ccc(Cl)cc1Cl)c1ccc(-c2nnc(-c3ccccc3)o2)cc1 (single isomer, unassigned) | Leishmania infantum CYP51 |  |  | concentration not given |  | remaining activity | 96 ± 6.3%
O=[N+]([O-])c1ccc(Cl)c([N+](=O)[O-])c1 | rhodopsin wild type-Rluc fusion | reporter gene | HEK293 | 24 h |  | EC50 | 1.52 µM
CC(C)CCCC(C)CCN1CCn2cc(C(=O)NCc3ccc(F)cc3F)c(=O)c(O)c2C1=O (stereo not drawn) | HIV-1 integrase wild type | viral replication | HOS, HIV-1 | single-round vector |  | EC50 | > 0.02 µM
Apolipoprotein B | anti-oxytocin rabbit polyclonal IgG | cross-reactivity, oxytocin EIA, Enzo |  | 3 µg/mL |  | apparent oxytocin concentration | 3.5 ± 0.8 pg/mL
CC(=O)NC(CCCNC(=N)N)C(=O)NC(CO)C(O)c1ccc([N+](=O)[O-])cc1 (stereo not drawn) | Escherichia coli 70S ribosome | binding, fluorescence polarization |  | together with: BODIPY-erythromycin 4 nM |  | Kd | 26 ± 10 µM
